Measurements gathered from unrelated publications.
Protocols differ between the studies behind these lines. “And” joins repeats or separate records; there may be more than shown. ± marks the error that the study gave.
GBA2: Beta-glucosidase (GBA2, Homo sapiens, UniProt Q9HCG7)
Chain of UniProt Q9HCG7 (whole entry, looked up): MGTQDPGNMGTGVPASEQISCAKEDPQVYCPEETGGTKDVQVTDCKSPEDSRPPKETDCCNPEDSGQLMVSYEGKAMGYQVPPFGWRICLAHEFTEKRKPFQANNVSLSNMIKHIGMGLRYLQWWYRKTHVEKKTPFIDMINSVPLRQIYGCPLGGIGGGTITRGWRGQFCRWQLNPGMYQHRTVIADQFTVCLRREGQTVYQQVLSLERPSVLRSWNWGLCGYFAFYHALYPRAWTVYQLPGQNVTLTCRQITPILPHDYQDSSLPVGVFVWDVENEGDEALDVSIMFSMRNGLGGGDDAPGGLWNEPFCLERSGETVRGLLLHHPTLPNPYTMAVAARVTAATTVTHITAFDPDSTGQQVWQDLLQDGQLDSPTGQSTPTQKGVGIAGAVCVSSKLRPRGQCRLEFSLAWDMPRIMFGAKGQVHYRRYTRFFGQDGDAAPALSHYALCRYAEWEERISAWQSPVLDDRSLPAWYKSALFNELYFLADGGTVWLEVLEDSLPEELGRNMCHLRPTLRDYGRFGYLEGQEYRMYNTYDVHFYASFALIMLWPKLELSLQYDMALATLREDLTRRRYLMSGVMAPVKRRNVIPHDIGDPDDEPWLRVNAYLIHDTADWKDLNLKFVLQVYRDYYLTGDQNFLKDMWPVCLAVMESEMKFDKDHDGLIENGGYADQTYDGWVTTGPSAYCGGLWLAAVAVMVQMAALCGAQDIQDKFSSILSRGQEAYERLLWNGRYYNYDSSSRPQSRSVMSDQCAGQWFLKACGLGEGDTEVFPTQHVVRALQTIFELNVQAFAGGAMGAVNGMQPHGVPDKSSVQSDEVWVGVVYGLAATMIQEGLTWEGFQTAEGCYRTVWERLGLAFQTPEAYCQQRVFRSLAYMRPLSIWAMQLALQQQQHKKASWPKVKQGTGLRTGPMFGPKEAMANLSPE

Structure (SMILES) | target or system | test | test system | conditions | scale | quantity | value
Cc1nc(N)nc2c1C(=O)N[C@@H](c1ccc(F)cc1-c1cccc(O[11CH3])n1)C2 |  | ex vivo biodistribution | healthy mice, blood | 60 min post-injection, baseline, vehicle pre-treatment |  | tracer uptake | 5.3 ± 3 %ID
CCCCN1C(=O)c2cccc3c(NCCCCCCN4CCOCC4)ccc(c23)C1=O |  |  | chloroform |  |  | molar extinction coefficient | 12500 M⁻¹ cm⁻¹
O=C(Nc1cnccc1-c1ccc([18F])nc1)c1ccnc(NC(=O)C2CC2)c1 |  | PET imaging | FVB/NJ mice, both sexes, brain | intravenous, 120 min post-injection, P-gp inhibited, with: tariquidar 15 mg/kg iv, 2 h before |  | SUV | 0.071
OC[C@H]1[C@@H](O)[C@H](O)[C@@H](O)CN1CCCCCOCc1ccccc1-c1ccccc1 | GBA2 | inhibitor, 4MU-β-D-glucopyranoside | HEK293T homogenates overexpressing GBA2 |  |  | IC50 | 3 nM
O=C([O-])CN1CCN(CC(=O)[O-])CCN(C(CO)C(O)CO)CCN(CC(=O)[O-])CC1.[Dy+3] (stereo not shown) |  | ICP-MS | female cynomolgus monkey, plasma | intravenous bolus, 0.1 mmol/kg, lanthanide mixture, geometric mean | baseline: AUC | terminal phase AUC share | 0.719%
CCCCN1C(=O)c2cccc3c(NCCCCCCCCCCN4CCOCC4)ccc(c23)C1=O |  |  | ethylene glycol |  |  | molar extinction coefficient | 13800 M⁻¹ cm⁻¹
O=C1CCC(N2Cc3cc(C(=O)O)c(F)cc3C2=O)C(=O)N1 (stereo not shown) |  |  | cynomolgus monkey, male | oral, 0.3 mg/kg parent drug, 0.25 h |  | plasma concentration | 0.63 ng/mL
O=C(NS(=O)(=O)c1cccs1)c1cc2ccccc2n1Cc1ccc(Br)c2ccccc12 |  |  | KM mouse, chronic hyperuricaemia model | dose not given, day 15 |  | body weight | 32.6 g and 35.2 g and 29.8 g and 31.2 g and 34.4 g and 37 g
CN1CCC[C@]1(C)/C=C/S(=O)(=O)NC(=O)Nc1c2c(cc3c1CC(O)C3)CCC2 (stereo partly shown) |  |  | human, plasma | oral, 50 mg twice daily of parent drug, day 14, metabolite of dosed drug |  | AUC(0-t) | 147 µg·h/mL
OC[C@@H]1[C@@H](O)[C@H](O)[C@@H](O)CN1CCCCCOCC1CC1 | GBA2 | inhibitor, 4MU-β-D-glucopyranoside | HEK293T homogenates overexpressing GBA2 |  | baseline: GCS IC50 over GBA2 IC50 | selectivity ratio | 400
CC[C@H](C)[C@H](NC(=O)[C@H](CCCCN)NC(=O)[C@H](CCC(=O)O)NC(=O)[C@H](CO)NC(=O)[C@H](Cc1ccccc1)NC(=O)[C@H](CC(C)C)NC(=O)[C@H](CCC(N)=O)NC(=O)[C@H](CO)NC(=O)[C@H](C)NC(=O)[C@H](CCCCN)NC(=O)[C@H](Cc1c[nH]cn1)NC(=O)[C@H](Cc1c[nH]c2ccccc12)NC(=O)[C@H](CCC(N)=O)NC(=O)[C@H](CCCCN)NC(=O)[C@H](CCCCN)NC(=O)[C@H](CC(C)C)NC(=O)CNC(=O)[C@H](C)NC(=O)[C@@H](NC(=O)[C@H](CO)NC(=O)[C@@H](N)CCSC)C(C)C)C(=O)N[C@@H](CO)C(=O)NCC(=O)N[C@@H](C)C(N)=O |  | circular dichroism | phosphate buffer | pH 7.4 |  | fractional helicity | 3.6%
COc1cccc(OC)c1-c1cc(C(=O)NC2(C(=O)O)C3CC4CC(C3)CC2C4)nn1-c1ccc(C(=O)N(C)CCCN(C)CCCN(C)C(=O)[C@H](CCCCNC(=O)[C@H](CC(C)C)NC(=O)C2OC2C(=O)O)NC(=O)CN2CCN(CC(=O)[O-])CCN(CC(=O)[O-])CCN(CC(=O)[O-])CC2)cc1C(C)C.[177Lu+3] (mixture of isomers) |  |  | mouse, HT-29 xenograft | 4 h post injection, biodistribution | baseline: tumour over brain uptake | tumour-to-brain ratio | 45.2
COCC1CN(C2CCN(c3cc(OC)c(Nc4ncc(Br)c(Nc5ccc6c(c5P(C)(C)=O)OCCO6)n4)cc3C)CC2)C1 |  |  | EGFR-mutant NSCLC patients, plasma | oral, 90 mg multiple doses, median |  | Tmax at steady state | 3.98 h
O=C(O)CCCOc1ccc([18F])cc1-c1cc(-c2ccccc2C(F)(F)F)n(-c2ccccc2)n1 |  |  | mouse, urine | intravenous, dose not given, 15 min |  | tissue uptake | 0.03 ± 0.02 %ID/g
CCN(CC)c1ccc2c(c1)O[B-]1(c3ccccc3)OC(=O)C(c3ccccc3)=N[N+]1=C2C(C)C (stereo not shown) |  |  | toluene |  |  | molar absorption coefficient | 47000 M⁻¹ cm⁻¹
CCCCN1C(=O)c2cccc3c(NCCN4CCOCC4)ccc(c23)C1=O |  |  | DCM |  |  | molar extinction coefficient | 6390 M⁻¹ cm⁻¹
C=CC(=O)Nc1cc(Nc2nccc(-c3c[nH]c4ccccc34)n2)c(OC)cc1N(C)CCN(C)C |  | storage stability | human plasma | 24 h, on ice, low QC level |  | recovery | 84.9%
CSCC[C@H](N)C(=O)N[C@@H](CO)C(=O)N[C@H](C(=O)N[C@@H](C)C(=O)NCC(=O)N[C@@H](CC(C)C)C(=O)N[C@@H](CCCCN)C(=O)N[C@@H](CCCCN)C(=O)N[C@@H](CCC(N)=O)C(=O)N[C@@H](Cc1c[nH]c2ccccc12)C(=O)N[C@@H](Cc1ccc(O)cc1)C(=O)N[C@@H](CCCCN)C(=O)N[C@@H](C)C(=O)N[C@@H](CO)C(=O)N[C@@H](CCC(N)=O)C(=O)N[C@@H](CC(C)C)C(=O)N[C@H](C(=O)N[C@@H](CO)C(=O)N[C@@H](CCC(=O)O)C(=O)N[C@@H](CCCCN)C(=O)N[C@H](C(=O)NCC(=O)NCC(=O)N[C@@H](C)C(N)=O)C(C)C)C(C)C)C(C)C |  | circular dichroism | phosphate buffer | pH 7.4 |  | fractional helicity | 6.7%
CCCC[C@H](OC(C)=O)c1ccccc1C(=O)O |  |  | Sprague-Dawley rat, both sexes, whole blood | intravenous, 5 mg/kg, day 7 |  | Cmax | 16300 ± 2590 ng/mL
CN1CCC[C@]1(C)/C=C/S(=O)(=O)NC(=O)Nc1c2c(cc3c1CCC3)CCC2 |  | item: nasopharyngitis, not related | human | oral, 100 mg twice daily, 14 days, multiple ascending dose |  | subjects with adverse event | 0%
C=CC(=O)N1CCCC(n2c(=O)c3ncccc3n(Cc3ccc(Oc4ccccc4)cc3)c2=O)C1 (stereo not shown) |  |  | BALB/c mice, male, plasma | oral, 200 mg/kg, 1 h |  | plasma concentration | 19600 ng/mL
O=C1NC2(CC2)COc2ncc(F)cc2[C@H]2COCCN2c2ccn3ncc1c3n2 |  | bone marrow micronucleus test | NIH mice, female | oral, 60 mg/kg/day, 3 days |  | PCE/(PCE+NCE) ratio | 0.544 ± 0.05
COc1ccc2c(c1)CCn1c[n+]3c(c1-2)-c1ccc(OC)cc1CC3 |  |  | female NSG mice, blood | 6 mg/kg, day 14, 5 days per week |  | haemoglobin | 13.4 ± 0.59 g/dL
C=C(NC(=O)c1csc(-c2nc3c(cc2O)-c2nc(cs2)C(=O)NC(C(C)O)C(=O)NC(=C(C)OC)c2nc(cs2)C(=O)NC2c4nc(cs4)C(=O)NC(COC(=O)c4c5c6c(cccc6n4O)COC(=O)C(OC4CC(C)(O)C(N(C)C)C(C)O4)C2OC5)c2nc-3cs2)n1)C(N)=O (stereo not shown) |  |  | Sprague-Dawley rat, both sexes, plasma | intravenous infusion, 18 mg/kg single dose |  | half-life | 6.19 ± 0.38 h
C=CC(=O)Nc1cc(Nc2nccc(-c3cn(C)c4ccccc34)n2)c(OC)cc1N(C)CCNC |  | storage stability | human dried blood spots | 5 h, on ice, medium QC level |  | recovery | 90%
O=C(Nc1cnccc1-c1ccc([18F])cc1)c1ccnc(NC(=O)C2CC2)c1 |  | ex vivo biodistribution, gamma counting | GSK-3β overexpressing transgenic mouse, late stage, caudate nucleus | intravenous, 120 min post-injection, with: tariquidar 15 mg/kg iv, at least 120 min before tracer |  | mean SUV | 0.23
CC(=O)N([O-])CCCCCNC(=O)CCC(=O)N([O-])CCCCCNC(=O)CCC(=O)N([O-])CCCCCN.[89Zr+4] |  |  | human plasma | 7 d, 37 °C |  | intact complex | 99 ± 1.2%
COC1CN([C@H]2CC[C@H]([C@@]3(C)Oc4c(Cl)cc(C(=O)NCc5c(SC)cc(C)[nH]c5=O)c(C)c4O3)CC2)C1 |  | RNA-seq, item: CREB3L3 | human, whole blood | dose not given, 24 h | baseline: pretreatment baseline | log2 fold change | 6.68
